Results pooled from the literature.
Protocols differ between the studies behind these lines. ± marks the error that the study gave.

SMILES	cell line	test	conditions	CC50 [µM]
C1CCCCCC2(CCCCC1)OOCCCOO2	HepG2/NTCP	cytotoxicity, trypan blue cell count	9 days	13
CC(C)C[C@@H]1NC(=O)[C@@H](Cc2c[nH]c3ccccc23)NC(=O)[C@H](CCCNC(=N)N)NC(=O)[C@@H](CCC(=O)O)NC(=O)[C@H](CCC(N)=O)NC(=O)[C@@H](CCC(=O)O)NC(=O)[C@H](CCCNC(=N)N)NC(=O)[C@@H](Cc2c[nH]c3ccccc23)NC1=O	NCI cell lines	cytotoxicity	–	36
O=c1cc[s+]([O-])c2ccc(Cl)cc12 (racemic)	U-937	MTT	72 h	81.9
CC[C@H](C)[C@H](NC(C)=O)C(=O)N[C@@H](CO)C(=O)N[C@@H](CC(C)C)C(=O)N[C@@H](CCC(=O)O)C(=O)N[C@@H](CCCNC(=N)N)C(=O)N[C@@H](CC(C)C)C(=O)N[C@@H](CC(=O)O)C(=O)N[C@H](C(=O)N[C@@H](CCC(=O)O)C(=O)N[C@@H](CCC(=O)O)C(=O)N[C@@H](CC(N)=O)C(=O)N[C@@H](CC(C)C)C(=O)N[C@@H](CCCCN)C(=O)N[C@@H](CCCCN)C(=O)N[C@@H](C)C(=O)N[C@@H](CCC(=O)O)C(=O)N[C@@H](CCC(=O)O)C(=O)N[C@@H](CCCCN)C(=O)N[C@@H](CC(C)C)C(=O)N[C@@H](CCCCN)C(=O)N[C@@H](CCCCN)C(=O)N[C@@H](C)C(=O)N[C@@H](CCC(=O)O)C(=O)N[C@@H](CCC(=O)O)C(=O)N[C@@H](CC(C)C)C(=O)N[C@@H](CC(C)C)C(=O)N[C@@H](CCCCN)C(=O)N[C@@H](CCCCN)C(=O)N[C@@H](CO)C(=O)N[C@@H](CCC(=O)O)C(=O)N[C@@H](CCC(=O)O)C(=O)N[C@H](C(=O)N[C@@H](CC(C)C)C(=O)N[C@@H](CCCCN)C(=O)N[C@@H](CCCCN)C(N)=O)[C@@H](C)CC)C(C)C	B95a	MTT	8 days, 37 °C	> 10
C=C1C(=O)OC2C1CCC(Cn1cc(-c3cc(C(F)(F)F)cc(C(F)(F)F)c3)nn1)=C1CCC(C)(O)C12 (centres unmarked)	M9-ENL1	cell viability, MTT	24 h	2.2 ± 0.1
O=C1C(Cc2ccc(C(F)(F)F)cc2)=CS(=O)(=O)c2ccccc21	U-937	MTT	72 h	5.91
Cc1ccc(NCCN(C)CCNc2ccnc3cc(Cl)ccc23)c2c(=O)c3ccccc3sc12	Vero E6 uninfected	cell viability, CellTiter-Glo	72 h	> 30
C=C1C(=O)O[C@@H]2C[C@H](C)[C@@H]3C[C@H](O[Si](C)(C)C(C)C)[C@H](O[Si](C)(C)C(C)C)[C@@]3(C)C[C@H]12	BALB/c mouse splenocytes	propidium iodide flow cytometry	48 h, 10% fetal calf serum	80.8
CCN(CC)CCCC(C)Nc1cc[n+]([Ru-]2[NH2+]CC[NH2+]2)c2cc(Cl)ccc12.Cc1ccc(C(C)C)cc1.F[P-](F)(F)(F)(F)F.F[P-](F)(F)(F)(F)F (centres unmarked)	SUP-T1	cytotoxicity, PI flow cytometry	20 h	75
CC[C@H](C)[C@H](NC(=O)[C@H](C)NC(=O)[C@H](CCC(=O)O)NC(C)=O)C(=O)N[C@H](C(=O)N[C@@H](CCCNC(=N)N)C(=O)NC1CCCC=CCCCC(C(=O)N[C@@H](CC(C)C)C(=O)N[C@@H](Cc2ccccc2)C(=O)N[C@H](C(=O)N[C@@H](Cc2c[nH]cn2)C(=O)N[C@@H](Cc2ccccc2)C(=O)N[C@@H](CCCNC(=N)N)C(=O)N[C@H](C(=O)NCC(N)=O)[C@@H](C)CC)[C@@H](C)CC)NC(=O)[C@H](CCC(N)=O)NC(=O)[C@H](CCC(N)=O)NC(=O)[C@H](CC(C)C)NC1=O)[C@@H](C)CC (some centres unmarked)	MT4 (mock-infected)	MTT	–	> 10
CC(C)C[C@@H]1NC(=O)[C@@H](Cc2c[nH]c3ccccc23)NC(=O)[C@H](CCCCN)NC(=O)[C@@H](Cc2c[nH]cn2)NC(=O)[C@H](CO)NC(=O)[C@@H](Cc2c[nH]cn2)NC(=O)[C@H](CCCCN)NC(=O)[C@@H](Cc2c[nH]c3ccccc23)NC1=O	NCI cell lines	cytotoxicity	–	7.8
COc1cccc2[nH]c(C(=O)N[C@@H](CC(C)C)C(=O)N[C@@H](C[C@@H]3CCNC3=O)C(=O)c3nc4ccccc4s3)cc12	VeroE6	WST-8	3 (unit not given)	> 100
OC[C@H]1[C@@H](O)[C@@H](O)CN1Cc1ccc(I)cc1	MRC-5	MTS	72 h	> 200
C=CCCCC(NC(=O)[C@H](CC(C)C)NC(=O)[C@@H](NC(=O)[C@H](CCCNC(=N)N)NC(=O)C(CCCC=C)NC(=O)[C@@H](NC(=O)[C@H](C)NC(=O)[C@H](CCC(=O)O)NC(C)=O)[C@@H](C)CC)[C@@H](C)CC)C(=O)N[C@@H](CCC(N)=O)C(=O)N[C@@H](CC(C)C)C(=O)N[C@@H](CC(C)C)C(=O)N[C@@H](Cc1ccccc1)C(=O)N[C@H](C(=O)N[C@@H](Cc1c[nH]cn1)C(=O)N[C@@H](Cc1ccccc1)C(=O)N[C@@H](CCCNC(=N)N)C(=O)N[C@H](C(=O)NCC(N)=O)[C@@H](C)CC)[C@@H](C)CC (some centres unmarked)	MT4 (mock-infected)	MTT	–	> 10
C=C1C(=O)O[C@@H]2[C@H]1CC[C@H](C)[C@@]1(O[Si](C)(C)C)C=CC(=O)[C@@]21C	BALB/c mouse splenocytes	propidium iodide flow cytometry	48 h, 10% fetal calf serum	1.5
CC[C@H](C)[C@H](NC(=O)[C@H](C)NC(=O)[C@H](CC(N)=O)NC(=O)CNC(=O)[C@H](CC(C)C)NC(=O)[C@H](CC(N)=O)NC(=O)[C@@H](NC(=O)CNC(=O)[C@@H](NC(C)=O)C(C)C)[C@@H](C)O)C(=O)N[C@@H](C)C(=O)N[C@@H](CCCCN)C(=O)N[C@@H](CC(C)C)C(=O)N[C@@H](CCC(=O)O)C(=O)N[C@@H](CC(=O)O)C(=O)N[C@@H](C)C(=O)N[C@@H](CCCCN)C(=O)N[C@@H](CCC(=O)O)C(=O)N[C@@H](CC(C)C)C(=O)N[C@@H](CC(C)C)C(=O)N[C@@H](CCC(=O)O)C(=O)N[C@@H](CO)C(=O)N[C@@H](CO)C(=O)N[C@@H](CC(=O)O)C(=O)N[C@@H](CCC(N)=O)C(=O)N[C@H](C(=O)N[C@@H](CC(C)C)C(=O)N[C@@H](CCCNC(=N)N)C(=O)N[C@@H](CO)C(N)=O)[C@@H](C)CC	B95a	MTT	8 days, 37 °C	> 10
O=c1cc[s+]([O-])c2ccccc12 (single isomer, unassigned; (+))	U-937	MTT	72 h	852
C=C1C(=O)OC2CC(C)C3C=CC(=O)C3(C)C(OC(C)=O)C12 (centres unmarked)	BALB/c mouse splenocytes	propidium iodide flow cytometry	48 h, 10% fetal calf serum	1.4
C1=[N+]2CCCC[N+]3=Cc4ccc5[n]4[Au-]23[n]2c1ccc2-c1nc2ccccc2nc1-5.F[P-](F)(F)(F)(F)F	ovarian cancer cell lines	–	NCI60 panel mean	94
O=C(Oc1ccc(CCCCCCCCC(=O)c2c(OC(=O)c3ccccc3)cccc2OC(=O)c2ccccc2)cc1OC(=O)c1ccccc1)c1ccccc1	Vero E6/TMPRSS2	MTT	–	> 40
CC(C)C[C@H](NC(=O)c1cc2c(OC(F)(F)F)cccc2[nH]1)C(=O)N[C@@H](C[C@@H]1CCNC1=O)C(=O)c1nc2ccccc2s1	VeroE6	WST-8	3 (unit not given)	> 100
CCCCCCCC1=CC(=O)c2ccccc2S1(=O)=O	U-937	MTT	72 h	460
Oc1ccc(CCCCCCCCC(O)c2c(O)cccc2O)cc1O (centres unmarked)	Vero E6/TMPRSS2	MTT	–	> 40
CCC[C@H](NC(=O)[C@H](CC(C)C)NC(=O)OCc1ccccc1)C(=O)C(=O)NCc1ccccn1	MRC-5	–	5 days	> 50
CC(C)C[C@H](NC(=O)c1cc2c(OC(F)(F)F)cccc2[nH]1)C(=S)N[C@@H](C[C@@H]1CCNC1=O)C(=O)c1nc2cc(F)ccc2s1	VeroE6	–	3 d	50 ± 1.1
COc1ccc(CCCCCCCCC(=O)c2c(OC)cccc2OC)cc1OC	Vero E6/TMPRSS2	MTT	–	27
